Results from different studies.
Numbered parts are unrelated; each lists some results of a single study.
Chain of UniProt P00519 (whole entry, unmodified, looked up): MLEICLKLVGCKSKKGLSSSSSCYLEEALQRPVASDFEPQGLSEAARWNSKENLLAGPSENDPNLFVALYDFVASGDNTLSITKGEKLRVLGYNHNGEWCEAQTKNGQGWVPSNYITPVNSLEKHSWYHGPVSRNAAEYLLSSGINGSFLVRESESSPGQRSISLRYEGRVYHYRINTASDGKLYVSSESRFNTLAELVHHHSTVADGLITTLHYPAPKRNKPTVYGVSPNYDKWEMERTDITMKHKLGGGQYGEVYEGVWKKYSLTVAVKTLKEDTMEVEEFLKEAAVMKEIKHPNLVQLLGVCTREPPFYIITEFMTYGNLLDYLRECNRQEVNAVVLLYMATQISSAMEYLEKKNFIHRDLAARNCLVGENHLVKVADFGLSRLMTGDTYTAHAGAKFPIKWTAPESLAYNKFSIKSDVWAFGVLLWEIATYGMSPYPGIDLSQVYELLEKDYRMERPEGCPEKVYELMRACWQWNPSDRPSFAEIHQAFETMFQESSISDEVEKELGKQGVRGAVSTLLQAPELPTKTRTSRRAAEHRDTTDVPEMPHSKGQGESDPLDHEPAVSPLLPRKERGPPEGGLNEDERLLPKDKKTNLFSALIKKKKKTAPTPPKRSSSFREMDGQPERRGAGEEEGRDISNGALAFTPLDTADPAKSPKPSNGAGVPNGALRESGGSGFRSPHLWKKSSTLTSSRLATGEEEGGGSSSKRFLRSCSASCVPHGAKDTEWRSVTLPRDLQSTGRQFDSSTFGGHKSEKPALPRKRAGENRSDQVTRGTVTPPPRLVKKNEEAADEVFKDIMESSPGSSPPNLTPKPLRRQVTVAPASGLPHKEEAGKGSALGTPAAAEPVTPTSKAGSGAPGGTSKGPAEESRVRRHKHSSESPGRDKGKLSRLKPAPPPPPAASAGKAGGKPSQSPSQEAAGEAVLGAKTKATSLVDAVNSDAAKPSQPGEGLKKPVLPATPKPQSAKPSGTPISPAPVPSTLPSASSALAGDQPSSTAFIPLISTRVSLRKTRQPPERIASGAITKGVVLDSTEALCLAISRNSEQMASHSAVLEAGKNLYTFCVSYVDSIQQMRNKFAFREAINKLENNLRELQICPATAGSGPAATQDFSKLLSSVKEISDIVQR
Chain of UniProt Q99755 (whole entry, looked up): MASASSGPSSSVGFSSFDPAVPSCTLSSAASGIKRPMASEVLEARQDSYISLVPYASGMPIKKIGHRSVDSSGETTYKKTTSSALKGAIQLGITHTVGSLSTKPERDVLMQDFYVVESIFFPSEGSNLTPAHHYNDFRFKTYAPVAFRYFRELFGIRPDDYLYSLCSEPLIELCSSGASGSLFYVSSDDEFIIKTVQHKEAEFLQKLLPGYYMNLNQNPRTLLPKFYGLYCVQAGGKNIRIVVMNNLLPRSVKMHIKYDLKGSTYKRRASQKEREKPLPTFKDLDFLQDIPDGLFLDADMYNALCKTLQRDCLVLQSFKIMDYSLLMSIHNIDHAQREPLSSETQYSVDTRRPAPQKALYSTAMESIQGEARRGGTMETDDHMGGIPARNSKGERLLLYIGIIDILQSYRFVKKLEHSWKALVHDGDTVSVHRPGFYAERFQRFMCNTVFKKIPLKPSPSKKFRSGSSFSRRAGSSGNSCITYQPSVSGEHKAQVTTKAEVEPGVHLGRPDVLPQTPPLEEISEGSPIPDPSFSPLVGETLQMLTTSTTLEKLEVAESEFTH
Chain of UniProt Q02763 (whole entry, looked up): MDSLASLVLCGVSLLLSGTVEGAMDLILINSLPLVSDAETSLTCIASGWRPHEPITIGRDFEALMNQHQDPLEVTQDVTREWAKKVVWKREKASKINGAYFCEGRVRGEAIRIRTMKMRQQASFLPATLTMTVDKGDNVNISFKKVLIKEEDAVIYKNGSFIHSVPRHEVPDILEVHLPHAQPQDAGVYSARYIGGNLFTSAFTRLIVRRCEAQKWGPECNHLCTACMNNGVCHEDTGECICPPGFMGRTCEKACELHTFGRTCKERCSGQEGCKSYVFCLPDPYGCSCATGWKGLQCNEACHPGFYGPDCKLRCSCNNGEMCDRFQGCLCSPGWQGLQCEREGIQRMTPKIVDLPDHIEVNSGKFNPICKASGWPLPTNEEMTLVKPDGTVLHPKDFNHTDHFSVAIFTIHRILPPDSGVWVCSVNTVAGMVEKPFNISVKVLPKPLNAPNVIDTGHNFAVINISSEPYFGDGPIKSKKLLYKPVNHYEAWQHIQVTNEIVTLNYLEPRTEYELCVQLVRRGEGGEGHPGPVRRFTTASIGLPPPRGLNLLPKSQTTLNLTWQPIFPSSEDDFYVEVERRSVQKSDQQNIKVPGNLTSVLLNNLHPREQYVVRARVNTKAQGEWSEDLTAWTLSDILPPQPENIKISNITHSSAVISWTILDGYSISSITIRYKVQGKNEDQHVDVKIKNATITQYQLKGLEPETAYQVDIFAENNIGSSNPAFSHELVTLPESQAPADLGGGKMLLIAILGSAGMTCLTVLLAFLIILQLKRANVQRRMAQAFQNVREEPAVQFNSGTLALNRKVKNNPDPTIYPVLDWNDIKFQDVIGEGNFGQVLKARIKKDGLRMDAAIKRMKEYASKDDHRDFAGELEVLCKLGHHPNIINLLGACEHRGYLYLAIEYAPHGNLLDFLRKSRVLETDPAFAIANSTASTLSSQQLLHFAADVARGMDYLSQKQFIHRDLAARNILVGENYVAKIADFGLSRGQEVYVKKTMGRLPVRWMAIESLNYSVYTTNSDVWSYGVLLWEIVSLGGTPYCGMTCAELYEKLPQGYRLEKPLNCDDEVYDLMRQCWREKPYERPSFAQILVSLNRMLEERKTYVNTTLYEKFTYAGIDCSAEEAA
Chain of UniProt Q13523 (whole entry, looked up): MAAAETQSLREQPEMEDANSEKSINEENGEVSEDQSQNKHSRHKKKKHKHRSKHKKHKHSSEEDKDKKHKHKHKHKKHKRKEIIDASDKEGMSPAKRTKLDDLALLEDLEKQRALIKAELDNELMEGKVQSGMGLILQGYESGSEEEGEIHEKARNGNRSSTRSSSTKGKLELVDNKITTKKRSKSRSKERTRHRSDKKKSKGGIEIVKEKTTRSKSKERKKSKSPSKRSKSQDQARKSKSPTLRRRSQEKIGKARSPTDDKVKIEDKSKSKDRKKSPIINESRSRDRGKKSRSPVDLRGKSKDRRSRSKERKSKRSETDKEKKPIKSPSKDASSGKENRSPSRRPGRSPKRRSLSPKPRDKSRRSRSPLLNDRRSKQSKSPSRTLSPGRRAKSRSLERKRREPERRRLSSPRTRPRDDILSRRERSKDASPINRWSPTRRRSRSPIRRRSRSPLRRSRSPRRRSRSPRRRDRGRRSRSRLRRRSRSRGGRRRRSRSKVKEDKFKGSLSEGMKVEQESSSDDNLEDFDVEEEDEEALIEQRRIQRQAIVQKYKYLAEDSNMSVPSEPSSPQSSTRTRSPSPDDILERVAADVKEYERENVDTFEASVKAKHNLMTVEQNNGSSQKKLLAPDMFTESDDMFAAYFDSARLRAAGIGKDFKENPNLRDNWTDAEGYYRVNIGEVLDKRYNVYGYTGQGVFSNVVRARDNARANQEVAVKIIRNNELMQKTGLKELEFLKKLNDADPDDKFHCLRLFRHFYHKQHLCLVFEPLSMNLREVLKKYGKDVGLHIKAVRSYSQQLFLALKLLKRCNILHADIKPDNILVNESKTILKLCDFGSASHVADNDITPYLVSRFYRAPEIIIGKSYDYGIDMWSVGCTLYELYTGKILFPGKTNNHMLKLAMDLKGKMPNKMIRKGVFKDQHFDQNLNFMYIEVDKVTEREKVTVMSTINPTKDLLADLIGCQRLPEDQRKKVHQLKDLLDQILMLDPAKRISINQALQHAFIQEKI

Series 1
Organism: Sarcocystis neurona
Read-out: parasite growth
Tested at: 10 µM
Time: 96 h
Notes: second screen
Relative to: untreated
Quantity: log2 fold change
SMILES = CCCCC(=O)O[C@]1(C(=O)CO)CC[C@H]2[C@@H]3CCC4=CC(=O)CC[C@]4(C)[C@H]3[C@@H](O)C[C@@]21C; value = 0.23
SMILES = CC1(C)S[C@@H]2[C@H](NC(=O)COc3ccccc3)C(=O)N2[C@H]1C(=O)O; value = 0.15
SMILES = CN1CCN(CCCN2c3ccccc3Sc3ccc(C(F)(F)F)cc32)CC1; value = 0.24
SMILES = Cc1ncc([N+](=O)[O-])n1CC(C)O (stereo not shown); value = 0.3
SMILES = Cc1cccc(C)c1NC(=O)C(C)N (stereo not shown); value = 0.08
SMILES = Cc1c(OCC(F)(F)F)ccnc1C[S+]([O-])c1nc2ccccc2[nH]1 (stereo not shown); value = 1.55
SMILES = CCc1c(C)[nH]c2c1C(=O)C(CN1CCOCC1)CC2 (stereo not shown); value = 0.44
SMILES = O=C(O)c1cc(=O)c2c(OCC(O)COc3cccc4oc(C(=O)O)cc(=O)c34)cccc2o1; value = 0.39
SMILES = CC(C)NCC(O)COc1cccc2[nH]ccc12 (stereo not shown); value = 0.4

Series 2
Host: human
Sample: microsomes or S9
Tested at: 2 µM
Time: 0.5 h
Quantity: remaining compound
Compound = COc1c(C)c2c(c(OC)c1C/C=C(\C)CCC(=O)N1CCOCC1)C(=O)OC2; value = 8.25%
Compound = O=C(C1CCC1)N1CCCC1c1nc(C2CCOCC2)no1 (stereo not shown); value = 23.9%
Compound = Nc1ccc2oc(=O)c3c(c2c1)CC(C(F)(F)F)S3 (stereo not shown); value = 70.1%
Compound = Cc1ccc(C2(c3noc(Cn4ccnc4)n3)CCCC2)cc1; value = 62.7%
Compound = O=C1CCC2(C(=O)N3CCN(c4ncccn4)CC3)CCCC=C2N1C1CCCC1 (stereo not shown); value = 5.86%
Compound = CC(C)(CNC(=O)[C@@H]1OCC[C@@H]1Cn1cccn1)C1CCOCC1; value = 54.5%
Compound = CCOC(=O)c1ccc(Nc2nc3ccccc3n3cnnc23)cc1; value = 82.1%
Compound = CNC(=O)C1CCN(c2nc(Nc3ccc4[nH]ncc4c3)nc(OC)n2)CC1; value = 94%
Compound = CC(=O)c1c([S+]([O-])CCC(C)C)[nH]c2c(Cc3ccccc3)cccc2c1=O (stereo not shown); value = 0.061%

Series 3
SMILES: C[C@@]1(Cc2ccc(C#N)cc2)C(=O)N(c2cc(Cl)cc(Cl)c2)c2ncc(C(=O)NC3(c4nc(C5CCC5)no4)CC3)n21
Tested at: 1 µM
Quantity: remaining binding
target = STK35 (Homo sapiens, UniProt Q8TDR2); read-out = cell-free assay; technique = competition with immobilised ligand; value = 100%
target = EGFR (Homo sapiens, UniProt P00533, G719C); read-out = cell-free assay; technique = competition with immobilised ligand; value = 100%
target = CDK7 (Homo sapiens, UniProt P50613); read-out = cell-free assay; technique = competition with immobilised ligand; value = 100%
target = FES (Homo sapiens, UniProt P07332); read-out = cell-free assay; technique = competition with immobilised ligand; value = 100%
target = CSNK2A1 (Homo sapiens, UniProt P68400); read-out = cell-free assay; technique = competition with immobilised ligand; value = 91%
target = MAP3K5 (Homo sapiens, UniProt Q99683); read-out = cell-free assay; technique = competition with immobilised ligand; value = 100%
target = DAPK2 (Homo sapiens, UniProt Q9UIK4); read-out = cell-free assay; technique = competition with immobilised ligand; value = 84%
target = PTK2 (Homo sapiens, UniProt Q05397); read-out = cell-free assay; technique = competition with immobilised ligand; value = 100%
target = PKMYT1 (Homo sapiens, UniProt Q99640); read-out = cell-free assay; technique = competition with immobilised ligand; value = 75%
target = MAP4K1 (Homo sapiens, UniProt Q92918); read-out = cell-free assay; technique = competition with immobilised ligand; value = 100%
target = TEK (Homo sapiens, UniProt Q02763); read-out = cell-free assay; technique = competition with immobilised ligand; value = 92%
target = PI4KB (Homo sapiens, UniProt Q9UBF8); read-out = cell-free assay; technique = competition with immobilised ligand; value = 100%
target = PRPF4B (Homo sapiens, UniProt Q13523); read-out = cell-free assay; technique = competition with immobilised ligand; value = 91%
target = PIP5K1A (Homo sapiens, UniProt Q99755); read-out = cell-free assay; technique = competition with immobilised ligand; value = 100%
target = PIK3CA (Homo sapiens, UniProt P42336, H1047L); read-out = cell-free assay; technique = competition with immobilised ligand; value = 96%
target = CDK9 (Homo sapiens, UniProt P50750); read-out = cell-free assay; technique = competition with immobilised ligand; value = 100%
target = EPHA2 (Homo sapiens, UniProt P29317); read-out = cell-free assay; technique = competition with immobilised ligand; value = 56%
target = Tyrosine-protein kinase ABL1, phosphorylated (ABL1, Homo sapiens, UniProt P00519, F317I); read-out = binding; value = 96%
target = MAPK3 (Homo sapiens, UniProt P27361); read-out = cell-free assay; technique = competition with immobilised ligand; value = 86%
target = CSNK1G1 (Homo sapiens, UniProt Q9HCP0); read-out = cell-free assay; technique = competition with immobilised ligand; value = 92%
target = PTK2B (Homo sapiens, UniProt Q14289); read-out = cell-free assay; technique = competition with immobilised ligand; value = 100%

Series 4
Target: Anoctamin-1 (ANO1, Homo sapiens, UniProt Q5XXA6, del476-501)
Chain of UniProt Q5XXA6 (whole entry, unmodified, looked up): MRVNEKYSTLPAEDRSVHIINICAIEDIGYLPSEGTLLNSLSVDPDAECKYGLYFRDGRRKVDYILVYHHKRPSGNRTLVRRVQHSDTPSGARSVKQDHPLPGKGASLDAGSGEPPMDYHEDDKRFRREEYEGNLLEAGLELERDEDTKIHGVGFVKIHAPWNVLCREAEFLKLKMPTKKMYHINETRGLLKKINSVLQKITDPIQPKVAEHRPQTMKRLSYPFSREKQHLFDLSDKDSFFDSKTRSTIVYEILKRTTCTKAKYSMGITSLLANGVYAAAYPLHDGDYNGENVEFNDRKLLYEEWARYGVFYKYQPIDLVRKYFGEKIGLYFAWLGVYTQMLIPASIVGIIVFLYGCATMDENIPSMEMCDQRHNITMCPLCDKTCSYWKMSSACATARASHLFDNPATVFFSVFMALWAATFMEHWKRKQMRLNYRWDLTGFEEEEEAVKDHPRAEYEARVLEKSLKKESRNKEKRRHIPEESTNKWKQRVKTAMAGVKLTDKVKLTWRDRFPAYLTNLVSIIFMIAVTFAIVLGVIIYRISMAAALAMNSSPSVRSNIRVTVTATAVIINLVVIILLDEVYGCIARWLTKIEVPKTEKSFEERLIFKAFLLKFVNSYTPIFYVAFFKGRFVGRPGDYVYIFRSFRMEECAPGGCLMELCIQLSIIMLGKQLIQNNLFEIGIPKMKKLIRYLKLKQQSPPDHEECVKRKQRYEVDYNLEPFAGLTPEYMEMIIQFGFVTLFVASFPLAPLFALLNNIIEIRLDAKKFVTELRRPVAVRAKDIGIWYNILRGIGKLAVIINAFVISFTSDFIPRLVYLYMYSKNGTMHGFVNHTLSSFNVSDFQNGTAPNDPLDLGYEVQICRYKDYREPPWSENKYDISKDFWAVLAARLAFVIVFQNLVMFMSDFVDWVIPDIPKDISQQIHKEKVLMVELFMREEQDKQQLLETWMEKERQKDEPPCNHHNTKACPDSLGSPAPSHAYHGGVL
Read-out: chloride current
Mode: inhibitor
Tested at: 10 µM
Quantity: inhibition
SMILES = CCc1oc2ccccc2c1C(=O)c1cc(Br)c(O)c(Br)c1; value = 89.3%
SMILES = O=C(Nc1ccc([N+](=O)[O-])cc1Cl)c1cc(Cl)ccc1O; value = 48.1%
SMILES = O=S(=O)(O)c1cc(N=C=S)ccc1C=Cc1ccc(N=C=S)cc1S(=O)(=O)O; value = 27.1%
SMILES = O=C(O)c1cccnc1Nc1cccc(C(F)(F)F)c1; value = 27.1%
SMILES = CNCCC(Oc1ccc(C(F)(F)F)cc1)c1ccccc1 (stereo not shown); value = 57.1%
SMILES = C=CCc1ccc(O)c(-c2cc(CC=C)ccc2O)c1; value = 27.6%
SMILES = CC/C(=C(\c1ccccc1)c1ccc(OCCN(C)C)cc1)c1ccccc1; value = 21.6%

For quick reference, copied from above (series 3):
target = CSNK2A1 (Homo sapiens, UniProt P68400); read-out = cell-free assay; technique = competition with immobilised ligand; value = 91%
target = MAP3K5 (Homo sapiens, UniProt Q99683); read-out = cell-free assay; technique = competition with immobilised ligand; value = 100%
target = DAPK2 (Homo sapiens, UniProt Q9UIK4); read-out = cell-free assay; technique = competition with immobilised ligand; value = 84%
